Measurements gathered from unrelated publications.
Numbered parts are unrelated; each lists some results of a single study. Values joined by “and” are separate records of one study, mostly repeats; a detail may differ. Substitutions count along the parent as printed.

Study 1
Target: Sal-like protein 4, full length isoform B (SALL4, Homo sapiens, UniProt Q9UJQ4-2, residues 1-616)
Technique: universal PBM
Molecule type: double-stranded DNA, one strand shown
Sample: in vitro
Tested at: not given
Setting: 8-mer, flanks averaged, mean of replicates
Reading: higher = stronger binding
The E-score of `GGCTTCCC` is reported as -0.234.
`CCTGAATA` gave an E-score of -0.0478.
`CCTAAAGC` gave an E-score of -0.157.
For `AGAATGGA`, the E-score was 0.0835.
`CCGAAGAA` gave an E-score of -0.022.
`ATGTCCTA` gave an E-score of 0.0593.
For `CTACGTCA`, the E-score was -0.144.

Study 2
Target: CCNB1, cyclin fold, Cln2 fusion (human)
Technique: yeast growth competition, sequencing
Sample: yeast
Setting: weak parent motif
Baseline: not given
Reading: higher = stronger binding
Parent: CDKN1B docking peptide (human); PSACRNLFGPVDH
`PSACRNLFGPVDL [H13L]`: “normalised enrichment score” -0.0371.
`PSACRNLFDPVDH [G9D]`: “normalised enrichment score” 0.643.
`PSACRNLFGPVHH [D12H]` — result for “normalised enrichment score”: 0.41.
Under “normalised enrichment score”, `PSACRNLFGIVDH [P10I]` is recorded as 0.438.
Under “normalised enrichment score”, `PSDCRNLFGPVDH [A3D]` is recorded as -0.0549.
`GSACRNLFGPVDH [P1G]` — result for “normalised enrichment score”: 0.258.

Study 3
Target: RNA binding protein fox-1 homolog 2, RRM domain, GST-SBP tag (RBFOX2, Homo sapiens, UniProt O43251-10, residues 100-194)
Technique: RNA Bind-n-Seq
Molecule type: RNA
Sample: in vitro
Tested at: 365 nM
Setting: natural RNA segment, single round, ends assumed
Baseline: no-protein control
Reading: higher = stronger binding
Shared flanks, not repeated: GGGAGUUCUACAGUCCGACGAUC … UGGAAUUCUCGGGUGCCAA
For `ACAGUAAAUUUGGGAUGUAUGUAAGGAGAGAGAGAAAUACCCUGUUAGUACCUCUAGAAAUCAUGUGUCCUAGGAAUGGCAAGGAUGGAAAGAAAGUUGAAGACUGUUCU`, “RBNS enrichment (R)” read 1.12.
`UGCCCCCACAGCACCCACAGAUCCCUGGCCCUUCCAGGAGUAAGUCCUGGGCAGGCAGAGCUGGGGUUGGCCUGAUCCCACCUGCCUUGCUCUUGGAAAGGACAUCAGGU` — result for “RBNS enrichment (R)”: 0.817.
`ACUACACUGUUCCUCGUAUGUGAAGGAGGCAGUGCUGACUCCGUGAGUGUGAGACACGUGCUUUGAACUGCUUUUCUAUUCAUGGAGCACUCCAUAGUCUCAAACUGUCC` — result for “RBNS enrichment (R)”: 0.438.
For `ACAUAAAAUGUCUGGUUGACUGUAUACCUUGUUUUUGAAGAAAUUUAUUCGUGAAAGGAAGAGCAGUUGUUAUUUAUUGUGAGGUCUCUUGCUUGUAAAGUAAAAGCUUU`, “RBNS enrichment (R)” read 0.781.
`UUGGCAUGAAAUUUUCCAAGCAAACCUCAUUAAACAUCUGUUGUUUGUUAAAGAUGUUCCACUGAAAGCAACGCAUGUUUCAAAGGCACGUCUUUCCGUUCGUUGGUUUU`: “RBNS enrichment (R)” 12.
For `UUUGUGCUAUUUUAUCACAGGCUUACACUACAAUUGUUAAUAAAUACUUCAUUUGGAGAUGUAUGGUGUAAAACACACAAACACACACAAAAAAGCACAAGCCCGCUGCA`, “RBNS enrichment (R)” read 1.79.
For `CCUCCUUGCCCAGGCCUCUCUCACUCUUCAUACUCCUCCAGAUUUUGUUCUCAGCAUUUUCCUUUCUCUGUGAUCAUUGGCAUCCUGGGCGUUUCUUGCCCUCUGCUGAC`, “RBNS enrichment (R)” read 1.12.

Further values, each from its own experiment
`PhoQ, residues 284 288 289 292 302 303 SVTLVV` gave a fold induction of 7.33 and 6.58 (PhoP, residues 12 14 15 18 19 LWHCS (Escherichia coli, UniProt P23836); Sort-seq, item: YFP reporter; E. coli; PhoQ-PhoP variant library, added: 10 µM Mg2+; baseline: high Mg2+ state, higher = stronger signaling).
